Measured values gathered from unrelated publications.
Each numbered part is a random draw from the data of one study; scales do not carry over between parts.

Study 1
Target: Protein C-ets-1 (ETS1, Homo sapiens, UniProt P14921, residues 1-441, Y397A, full length assumed)
Technique: protein-binding microarray
Molecule type: double-stranded DNA, one strand shown
Sample: in vitro
Tested at: not given
Notes: k-mer, scored over probes, only values ≥0.25
Direction: higher = stronger binding
Measurement: E-score
Construct (chain): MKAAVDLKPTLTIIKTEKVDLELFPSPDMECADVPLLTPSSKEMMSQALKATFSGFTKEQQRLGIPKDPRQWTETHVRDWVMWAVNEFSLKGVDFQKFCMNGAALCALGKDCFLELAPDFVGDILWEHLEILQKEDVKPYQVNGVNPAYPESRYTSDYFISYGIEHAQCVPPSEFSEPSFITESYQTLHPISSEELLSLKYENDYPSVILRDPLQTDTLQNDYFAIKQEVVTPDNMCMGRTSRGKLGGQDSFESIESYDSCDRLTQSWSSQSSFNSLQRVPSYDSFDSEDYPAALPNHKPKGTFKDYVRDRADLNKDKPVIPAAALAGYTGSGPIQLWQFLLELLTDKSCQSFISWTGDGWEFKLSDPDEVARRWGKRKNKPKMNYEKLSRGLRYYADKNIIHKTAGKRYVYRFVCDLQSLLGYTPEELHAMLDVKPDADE
Sequence = CTTCCGCC; result = 0.423
Sequence = CGGAAGTA; result = 0.475
Sequence = CGCAAACA; result = 0.311
Sequence = CGTCGACG; result = 0.319
Sequence = AATGGCAT; result = 0.25
Sequence = GGATGTGA; result = 0.255
Sequence = AACTGTGT; result = 0.263
Sequence = TACTGTCA; result = 0.284

Study 2
Target: Prothrombin, mature alpha-thrombin (F2, Homo sapiens, UniProt P00734)
Technique: aptamer microarray, sandwich
Molecule type: DNA with 2'F-ANA
Sample: in vitro
Tested at: 200 nM
Notes: whole 15-mer aptamer, many near background
Together with: Cy3 exosite-II aptamer, 400 nM
Direction: higher = stronger binding
Measurement: mean fluorescence intensity
Sequence: GGTTGGTGTGGTTGG
Modification = 2'F-ANA at 1 2 3 5 9 12; result = 342 a.u.
Modification = 2'F-ANA at 1 4 5 6 8 9 12 13 15; result = 68.3 a.u.
Modification = 2'F-ANA at 1 3 4 5 7 9 12; result = 179 a.u.
Modification = 2'F-ANA at 1 3 4 6 7 8 9 10 12 14; result = 58.3 a.u.
Modification = 2'F-ANA at 1 2 3 4 7 8 9 10 12 14 15; result = 56.7 a.u.
Modification = 2'F-ANA at 1 2 8 9 11 12 13 14 15; result = 65.3 a.u.
Modification = 2'F-ANA at 1 4 6 7 12 13 14 15; result = 54.9 a.u.
Modification = 2'F-ANA at 2 3 4 5 7 9 11 12 14; result = 55.8 a.u.

Single results of other studies
Structure (SMILES) = CCCOc1ccc([C@@H]2[C@@H](C(=O)O)[C@H](c3ccc4c(c3)OCO4)CN2CC(=O)Nc2c(CC)cccc2CC)cc1; target or system = EGFR (Homo sapiens, UniProt P00533, del752-759); observed = cell-free assay; technique = competition with immobilised ligand; tested at = 1 µM; measurement = remaining binding; result = 100%
Structure (SMILES) = CCC[C@@H]1NC(=O)CSC[C@@H](C(=O)OCC)N(C)C(=O)[C@H](CC(C)C)NC(=O)[C@@H](C)N(C)C(=O)[C@H](CC(C)C)NC(=O)[C@H](C)N(C)C(=O)[C@@H]2CCCN2C(=O)[C@@H](CC(C)C)NC(=O)CN(CCC)C1=O; sample = hydrocarbon/water; measurement = logD; result = 0.418

A few entries again (study 2):
Modification = 2'F-ANA at 1 4 6 7 12 13 14 15; result = 54.9 a.u.
